{"data": "Measured values gathered from unrelated publications", "note": "Each numbered part is a random draw from the data of one study; scales do not carry over between parts.", "UniProt Q9Y2X8, sequence (whole entry, looked up)": "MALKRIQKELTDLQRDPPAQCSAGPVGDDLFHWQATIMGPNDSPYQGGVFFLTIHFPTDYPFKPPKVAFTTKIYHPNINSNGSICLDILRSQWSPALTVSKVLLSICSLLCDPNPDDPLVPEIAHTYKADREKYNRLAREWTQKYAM"}
{"data": "Study 1", "target": "PABPC1L2, full length, GST fusion (mouse, UniProt A0ABA7IW68)", "method": "RNAcompete", "molecule type": "RNA", "matrix": "in vitro", "tested at": "20 nM", "notes": "7-mer, probes averaged, single round", "reference": "mean of 7-mers", "direction": "higher = stronger binding", "Residues (chain)": "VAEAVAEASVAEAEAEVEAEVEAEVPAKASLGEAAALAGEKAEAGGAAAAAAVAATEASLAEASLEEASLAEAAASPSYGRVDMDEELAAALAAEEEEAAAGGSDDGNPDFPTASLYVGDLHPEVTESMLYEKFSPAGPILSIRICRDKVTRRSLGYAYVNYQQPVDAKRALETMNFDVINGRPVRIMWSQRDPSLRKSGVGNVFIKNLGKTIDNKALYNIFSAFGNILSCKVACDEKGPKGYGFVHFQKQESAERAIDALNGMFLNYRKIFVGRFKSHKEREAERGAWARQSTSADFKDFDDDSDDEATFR"}
{"Oligonucleotide": "UCUGUGC", "7-mer Z-score": -0.374}
{"Oligonucleotide": "GCGAGGA", "7-mer Z-score": 0.267}
{"Oligonucleotide": "AUCGCGA", "7-mer Z-score": -0.151}
{"Oligonucleotide": "CCGAUUC", "7-mer Z-score": -0.402}
{"Oligonucleotide": "CAAAUGU", "7-mer Z-score": 0.095}
{"Oligonucleotide": "UACUGAA", "7-mer Z-score": -0.0699}
{"Oligonucleotide": "UCAGAGU", "7-mer Z-score": -0.251}
{"Oligonucleotide": "ACUUCUA", "7-mer Z-score": -0.13}
{"data": "Study 2", "target": "Prothrombin, mature alpha-thrombin (F2, Homo sapiens, UniProt P00734)", "method": "aptamer microarray, sandwich", "molecule type": "DNA with 2'F-ANA", "matrix": "in vitro", "tested at": "200 nM", "notes": "whole 15-mer aptamer, many near background", "added": "Cy3 exosite-II aptamer, 400 nM", "direction": "higher = stronger binding", "oligonucleotide": "GGTTGGTGTGGTTGG"}
{"Modification": "2'F-ANA at 4 5 6 7 8 13 14", "mean fluorescence intensity": "44.2 a.u."}
{"Modification": "2'F-ANA at 3 4 8 11", "mean fluorescence intensity": "611 a.u."}
{"Modification": "2'F-ANA at 1 2 5 6 7 9 15", "mean fluorescence intensity": "62.2 a.u."}
{"Modification": "2'F-ANA at 1 2 3 9 11 13 15", "mean fluorescence intensity": "174 a.u."}
{"Modification": "2'F-ANA at 1 6 9 12 15", "mean fluorescence intensity": "352 a.u."}
{"Modification": "2'F-ANA at 1 2 3 4 5 9 11 12 14", "mean fluorescence intensity": "48.9 a.u."}
{"Modification": "2'F-ANA at 1 4 5 8 10 11 12 13", "mean fluorescence intensity": "46.1 a.u."}
{"Modification": "2'F-ANA at 2 4 5 9 11 12 15", "mean fluorescence intensity": "97.7 a.u."}
{"data": "Study 3", "target": "HLA class I histocompatibility antigen, A alpha chain, allele A*80:01 (Homo sapiens, UniProt P04439)", "read-out": "peptide-MHC binding", "molecule type": "peptide", "tested at": "concentration not given"}
{"Molecule": "TTILGLLPM", "binding": "inactive"}
{"Molecule": "FLFDRLTNG", "binding": "inactive"}
{"Molecule": "LSDNLSLVY", "binding": "inactive"}
{"Molecule": "GQFLSFASL", "binding": "inactive"}
{"data": "Single results of other studies"}
{"Substance": "BRCA1 RING domain (UniProt P38398)", "target": "UBE2D4 UBC core domain (UniProt Q9Y2X8)", "assay": "yeast two-hybrid", "system": "yeast", "setting": "mostly zero background", "scale": "reference: not given, higher = stronger interaction", "measurement": "lacZ reporter activity", "value": 0}
{"note": "A few entries again (study 1):"}
{"Oligonucleotide": "AUCGCGA", "7-mer Z-score": -0.151}
{"Oligonucleotide": "CCGAUUC", "7-mer Z-score": -0.402}
{"Oligonucleotide": "CAAAUGU", "7-mer Z-score": 0.095}
